Results of several laboratories.
Numbers after ± are the reported error.
HDAC6 ZnF-UBD domain: Protein deacetylase HDAC6, ZnF-UBD domain (HDAC6, Homo sapiens, UniProt Q9UBN7)
Sequence of UniProt Q9UBN7 (whole entry, looked up): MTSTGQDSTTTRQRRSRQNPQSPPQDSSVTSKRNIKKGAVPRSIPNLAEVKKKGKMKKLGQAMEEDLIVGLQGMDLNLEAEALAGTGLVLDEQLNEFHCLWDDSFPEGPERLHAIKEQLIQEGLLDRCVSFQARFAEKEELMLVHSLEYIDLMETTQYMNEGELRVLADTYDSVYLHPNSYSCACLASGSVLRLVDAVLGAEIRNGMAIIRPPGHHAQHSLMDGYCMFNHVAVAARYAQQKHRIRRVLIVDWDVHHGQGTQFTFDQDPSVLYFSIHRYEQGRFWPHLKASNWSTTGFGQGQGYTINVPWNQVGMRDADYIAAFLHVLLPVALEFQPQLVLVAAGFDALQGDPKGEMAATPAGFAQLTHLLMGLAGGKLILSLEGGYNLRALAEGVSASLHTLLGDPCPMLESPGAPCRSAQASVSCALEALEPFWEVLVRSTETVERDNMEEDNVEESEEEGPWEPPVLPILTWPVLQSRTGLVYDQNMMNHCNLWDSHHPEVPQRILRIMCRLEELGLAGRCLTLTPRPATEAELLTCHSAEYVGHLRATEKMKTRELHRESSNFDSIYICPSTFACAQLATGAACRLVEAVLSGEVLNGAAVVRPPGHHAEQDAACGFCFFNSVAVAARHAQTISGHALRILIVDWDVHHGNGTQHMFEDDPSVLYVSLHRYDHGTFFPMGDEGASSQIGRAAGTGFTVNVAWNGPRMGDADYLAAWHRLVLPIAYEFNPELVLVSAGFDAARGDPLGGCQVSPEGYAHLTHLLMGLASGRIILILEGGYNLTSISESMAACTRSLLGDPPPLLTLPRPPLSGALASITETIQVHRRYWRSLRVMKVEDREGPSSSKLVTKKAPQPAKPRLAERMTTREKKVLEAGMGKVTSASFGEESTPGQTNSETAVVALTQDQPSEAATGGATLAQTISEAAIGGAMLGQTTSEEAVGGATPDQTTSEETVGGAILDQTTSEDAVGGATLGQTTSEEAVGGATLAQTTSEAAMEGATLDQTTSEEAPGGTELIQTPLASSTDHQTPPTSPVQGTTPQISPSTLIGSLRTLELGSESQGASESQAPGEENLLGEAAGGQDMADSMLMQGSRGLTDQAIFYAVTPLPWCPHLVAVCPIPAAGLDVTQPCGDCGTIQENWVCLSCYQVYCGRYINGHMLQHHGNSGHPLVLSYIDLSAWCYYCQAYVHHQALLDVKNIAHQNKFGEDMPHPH
Sequence of UniProt O14965 (whole entry, looked up): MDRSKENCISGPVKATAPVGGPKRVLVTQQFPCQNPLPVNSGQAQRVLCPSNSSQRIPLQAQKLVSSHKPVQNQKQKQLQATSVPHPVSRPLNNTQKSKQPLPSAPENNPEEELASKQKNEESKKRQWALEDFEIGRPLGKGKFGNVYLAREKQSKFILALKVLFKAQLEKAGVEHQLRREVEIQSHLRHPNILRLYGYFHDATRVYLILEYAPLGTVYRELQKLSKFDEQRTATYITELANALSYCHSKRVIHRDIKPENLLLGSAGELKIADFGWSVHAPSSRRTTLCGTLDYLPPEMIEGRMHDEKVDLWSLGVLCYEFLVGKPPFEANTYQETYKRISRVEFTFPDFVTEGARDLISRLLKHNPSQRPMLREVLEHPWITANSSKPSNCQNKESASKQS

CN(Cc1cnc2nc(N)nc(N)c2n1)c1ccc(C(=O)N[C@@H](CCC(=O)O)C(=O)O)cc1 — IC50 (MTHFR C677T(+/−) SCRIB P1043L(−/−) forebrain tissues; neural rosette emergence): 0.0411 µM
CC#CC(=O)N1CCC[C@H]1c1nc(-c2ccc(C(=O)Nc3ccccn3)cc2)c2c(N)nccn12 — IC50 (TMD8 wild-type; calcium flux, FLIPR; 4 h preincubation, added: anti-IgM): 0.01 µM
O=C(O)CCCc1cc2cc(Cl)ccc2n1S(=O)(=O)c1ccc2ncsc2c1 — IC50 (LX-2 hepatic stellate cells; collagen production, ELISA, measured: Col1a1; 48 h, serum-free, added: 2.5 ng/mL TGF-β1): 14.3 ± 3.14 µM
O=C1C[C@@](c2ccc(N3CCOCC3)cc2)(c2ccsc2)NC(=O)C1Sc1ccccc1Cl (some centres unmarked) — IC50 (HEK293T; lactate production; 1 h): 4.6 µM
C[C@H]1CN(C2COC2)CCN1c1ccc(Nc2cc(-c3ccnc(N4CCn5c(cc6c5CC(C)(C)C6)C4=O)c3CO)cn(C)c2=O)nc1 — IC50 (TMD8 wild-type; calcium flux, FLIPR; 4 h preincubation, added: anti-IgM): 0.0091 µM
N#CC[C@H](C1CCCC1)n1cc(-c2ncnc3[nH]ccc23)cn1 — IC50 (PBMC; cytokine release, MSD, measured: IL-1β; 24 h, added: anti-CD3ε/anti-CD28): 0.062 µM
CC(C)[C@H](NC(=O)[C@@H](NC(=O)CCCc1cn(CC(O)CN2CCN(CC(=O)O)CCN(CC(=O)O)CCN(CC(=O)O)CC2)nn1)[C@@H](C)O)C(=O)N[C@@H](CCCNC(=N)N)C(=O)N[C@H](C(=O)N[C@@H](CO)C(=O)N[C@@H](C)C(=O)N[C@@H](CC(=O)O)C(=O)O)[C@@H](C)O (some centres unmarked) — Cmax (healthy male humans, plasma; intravenous bolus, 0.08 mmol/kg): 1680 ± 630 µg/mL
CC(C)c1cc(Oc2c(Cl)cc(-n3nc(C#N)c(=O)[nH]c3=O)cc2Cl)n[nH]c1=O — IC50 (LX-2 hepatic stellate cells; collagen production, ELISA, measured: Col1a1; 48 h, serum-free, added: 2.5 ng/mL TGF-β1): > 40 µM
O=C(O)CN1Cc2ccccc2C1=O — Kd (HDAC6 ZnF-UBD domain): > 1000 µM
CC1(C)CCC2(CC1)N[C@@H](C(=O)N[C@@H]1CC[C@@H](C(N)=O)OC1)[C@H](c1ccnc(Cl)c1F)[C@]21C(=O)Nc2cc(Cl)ccc21 — IC50 (well-differentiated liposarcoma cells (MDM2 amplified); cell proliferation, alamarBlue; 72 h): 0.084 µM
O=C(Nc1ccnc(C(F)(F)F)c1)Nc1cccc2c1OC(F)(F)O2 — IC50 (HFF; cell growth): 64 µM
C=CC(=O)Nc1cc(Nc2nccc(-c3cn(C)c4ccccc34)n2)c(OC)cc1N(C)CCN(C)C — IC50 (Ba/F3 EGFR D770-N771insNPG; cell proliferation; 72 h): 0.111 ± 0.0152 µM
CC[C@@H]1[C@H](F)C(=O)N[C@@H]1COc1nccc2cc(C(N)=O)c(OC)cc12 — inhibition (Aurora kinase A (AURKA, Homo sapiens, UniProt O14965); ATP probe binding, KiNativ profiling, measured: Lys2 probe site; THP-1 cell lysate; 0.01 mM): -0.7%
CCOc1cc([C@@H](CS(C)(=O)=O)N2C(=O)c3cccc(NC(C)=O)c3C2=O)ccc1OC — IC50 (PBMC; cytokine release, MSD, measured: IL-4; 24 h, added: anti-CD3ε/anti-CD28): 0.47 µM
CCCCN1C[C@H](O)[C@@H](O)[C@@H](O)[C@H]1CO — IC50 (sample BC patient fibroblasts; Gb3 level lowering, LC-MS/MS, measured: Gb3 d18:1/22:0; 216 h): 34.1 µM
C=CC(=O)Nc1cccc(Oc2nc(Nc3ccc(N4CCN(C)CC4)cc3)nc3ccoc23)c1 — IC50 (TMD8 wild-type; calcium flux, FLIPR; 2 h preincubation, added: anti-IgM): > 1 µM
Cn1cc(-c2ccc(-c3cncc(Cl)c3N3CCC4(CCNC4=O)CC3)cc2)cn1 — log2 fold change (COLO 205; gene expression, microarray, measured: GTF2IRD2 mRNA; concentration not given, 2 h; reference: untreated cells): 9.24
O=C(O)COCC(=O)O — IC50 (hepatocytes, iPSC-derived, line L1; cell viability, RealTime-Glo MT; 24 h, differentiation day 23): 10000 µM
C=CC(=O)N1CCC([C@@H]2CCNc3c(C(N)=O)c(-c4ccc(Oc5ccccc5)cc4)nn32)CC1 — IC50 (TMD8 wild-type; calcium flux, FLIPR; 2 h preincubation, added: anti-IgM): 0.0028 µM
Cc1c(C(=O)O)ccc2c3n(nc12)[C@@H]1[C@H](C3)N(CC2CC2)[C@@]2(C(=O)Nc3cc(Cl)ccc32)[C@H]1c1cccc(Cl)c1F — IC50 (A204; cell growth, alamarBlue; unbound, 4.5% of total): 0.00034 µM
CC1(C)CCC(CN2CCN(c3ccc(C(=O)NS(=O)(=O)c4ccc(NCC5CCOCC5)c([N+](=O)[O-])c4)c(Oc4cnc5[nH]ccc5c4)c3)CC2)=C(c2ccc(Cl)cc2)C1 — IC50 (CD56+ NK cells from myeloma patients; cell viability, high-throughput flow cytometry): 0.00712 µM
NS(=O)(=O)c1ccc(Cc2c(-c3ccc(F)c(F)c3)[nH]n(-c3nc(C(=O)O)cs3)c2=O)cc1 — IC50 (HEK293T; lactate production; 1 h): > 50 µM
O=C(CNC(=O)c1cccc2ccccc12)Nc1ccccc1Oc1cccc(O)c1 — IC50 (SK-N-BE(2)-C; cell growth, inhibitor): 0.485 µM
O=C(O)CCc1ccc2c(c1)OCO2 — Kd (HDAC6 ZnF-UBD domain): > 1000 µM
NS(=O)(=O)c1ccc(Cc2c(-c3cccc(-c4ccccc4)c3)[nH]n(-c3nc(C(=O)O)cs3)c2=O)cc1 — IC50 (HEK293T; lactate production; 1 h): 21 µM
O=C(Nc1c(Cl)cncc1Cl)c1ccc(OC(F)F)c(OCC2CC2)c1 — IC50 (PBMC; cytokine release, MSD, measured: IL-2; 24 h, added: anti-CD3ε/anti-CD28): 0.0018 µM
Nc1ccn([C@@H]2O[C@H](CO)[C@@H](O)C2(F)F)c(=O)n1 — IC50 (Capan-2; cell viability, MTT; mutant KRAS primary): > 10 µM
Cc1c(C)c2c(c(C)c1O)CCC(C)(COc1ccc(CC3SC(=O)NC3=O)cc1)O2 (centres unmarked) — IC50 (hepatocytes, iPSC-derived, line L1; cell viability, RealTime-Glo MT; 24 h, differentiation day 23): 17 µM
Cc1cc(NC(=O)Nc2ccc3c(c2)OC(F)(F)O3)cc(C(F)(F)F)n1 — IC50 (HFF; cell growth): 42 µM
C=CC(=O)N1CCC[C@@H](c2ccc(C(N)=O)c3[nH]ccc23)C1 — IC50 (TMD8 wild-type; calcium flux, FLIPR; 2 h preincubation, added: anti-IgM): > 1 µM
CCN(CCO)CCCC(C)Nc1ccnc2cc(Cl)ccc12 (centres unmarked) — IC50 (human PBMC; qRT-PCR, measured: MX1 mRNA; added: ssRNA): 2.4 ± 0.9 µM
COc1ccc(Oc2ccccc2NC(=O)CNC(=O)c2cccc3ccccc23)cc1 — IC50 (SK-N-BE(2)-C; cell growth, inhibitor): 0.234 µM
CC(=O)[C@]1(O)Cc2c(O)c3c(c(O)c2[C@@H](O[C@H]2C[C@H](N)[C@H](O)[C@H](C)O2)C1)C(=O)c1ccccc1C3=O — IC50 (primary human intestinal proliferative cells; EdU incorporation; 48 h): 0.0479 µM
COc1c(Cl)cccc1Nc1c(-c2ccncc2OC[C@@H]2COCCO2)[nH]c2c1C(=O)NCC2 — IC50 (NCI-H2170 HER2-amplified; cell proliferation, CellTiter-Glo): 0.0167 µM
CC(=O)c1c(O)c(C)c(O)c2c1OC1=CC(=O)C(C(C)=O)C(=O)C12C (single isomer, unassigned; (+)) — IC50 (hepatocytes, iPSC-derived, line L1; cell viability; 48 h): 7 µM

Some of these lines once more:
O=C(Nc1ccnc(C(F)(F)F)c1)Nc1cccc2c1OC(F)(F)O2 — IC50 (HFF; cell growth): 64 µM
O=C1C[C@@](c2ccc(N3CCOCC3)cc2)(c2ccsc2)NC(=O)C1Sc1ccccc1Cl (some centres unmarked) — IC50 (HEK293T; lactate production; 1 h): 4.6 µM
